# Measured values of several laboratories.
# Parts stem from different laboratories: compare values within a part only. Changes are numbered by the printed parent chain.
# Sequence of UniProt Q13422 (whole entry, looked up): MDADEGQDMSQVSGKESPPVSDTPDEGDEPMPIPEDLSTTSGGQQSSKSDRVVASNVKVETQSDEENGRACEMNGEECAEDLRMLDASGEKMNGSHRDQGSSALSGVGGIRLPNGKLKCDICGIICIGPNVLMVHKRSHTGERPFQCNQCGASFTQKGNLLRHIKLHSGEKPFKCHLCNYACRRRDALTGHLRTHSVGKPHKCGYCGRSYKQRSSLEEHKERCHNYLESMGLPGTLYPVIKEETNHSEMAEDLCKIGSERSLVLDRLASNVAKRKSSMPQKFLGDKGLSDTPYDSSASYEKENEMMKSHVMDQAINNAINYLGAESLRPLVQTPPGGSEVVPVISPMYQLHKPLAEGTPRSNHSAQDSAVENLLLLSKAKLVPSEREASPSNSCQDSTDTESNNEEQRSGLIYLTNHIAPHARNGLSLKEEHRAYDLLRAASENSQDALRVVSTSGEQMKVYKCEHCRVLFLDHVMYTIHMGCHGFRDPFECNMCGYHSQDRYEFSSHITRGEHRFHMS
# Sequence of UniProt Q01959 (whole entry, looked up): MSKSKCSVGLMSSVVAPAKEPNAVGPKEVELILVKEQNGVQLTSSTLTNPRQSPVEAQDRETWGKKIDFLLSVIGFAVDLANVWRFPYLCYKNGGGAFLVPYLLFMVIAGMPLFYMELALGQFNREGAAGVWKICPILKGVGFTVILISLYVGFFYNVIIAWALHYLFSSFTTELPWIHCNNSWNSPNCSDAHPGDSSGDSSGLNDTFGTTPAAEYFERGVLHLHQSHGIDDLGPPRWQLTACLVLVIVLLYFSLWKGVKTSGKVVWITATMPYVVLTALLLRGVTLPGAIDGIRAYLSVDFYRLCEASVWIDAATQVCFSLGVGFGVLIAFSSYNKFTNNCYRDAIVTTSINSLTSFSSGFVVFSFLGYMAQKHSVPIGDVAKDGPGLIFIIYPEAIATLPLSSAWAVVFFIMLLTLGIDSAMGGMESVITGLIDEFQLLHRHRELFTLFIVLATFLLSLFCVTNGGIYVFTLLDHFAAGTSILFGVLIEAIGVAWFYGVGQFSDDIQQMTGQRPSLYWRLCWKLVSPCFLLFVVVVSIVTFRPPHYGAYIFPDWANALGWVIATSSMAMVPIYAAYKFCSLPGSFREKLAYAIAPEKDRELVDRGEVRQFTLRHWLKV

# Block 1
# Target: tungstate, free oxyanion
# Technique: microfluidic competitive inhibition
# Sample: in vitro, cell-free expressed
# Tested at: not given
# Setting: derived from inhibition constants, unchanged parent 2230 nM
# Direction: lower = stronger binding
# Parent: PafA, mature enzyme, eGFP fusion (Elizabethkingia meningoseptica, UniProt Q9KJX5); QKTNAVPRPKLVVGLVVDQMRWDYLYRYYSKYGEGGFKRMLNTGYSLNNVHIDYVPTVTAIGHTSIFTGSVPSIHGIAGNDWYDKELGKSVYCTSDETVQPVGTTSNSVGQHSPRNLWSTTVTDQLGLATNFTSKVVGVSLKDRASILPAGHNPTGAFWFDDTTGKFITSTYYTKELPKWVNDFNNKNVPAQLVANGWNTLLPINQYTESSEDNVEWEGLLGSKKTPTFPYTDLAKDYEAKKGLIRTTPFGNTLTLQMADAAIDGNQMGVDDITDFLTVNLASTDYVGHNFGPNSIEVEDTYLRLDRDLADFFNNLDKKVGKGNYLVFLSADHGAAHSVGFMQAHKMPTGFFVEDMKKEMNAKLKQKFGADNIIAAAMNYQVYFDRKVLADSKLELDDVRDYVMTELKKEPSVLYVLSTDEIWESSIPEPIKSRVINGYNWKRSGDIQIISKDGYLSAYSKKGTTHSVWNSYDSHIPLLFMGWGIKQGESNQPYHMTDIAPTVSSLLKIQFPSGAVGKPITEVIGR
Substitution,oxyanion analog dissociation constant
I296G,1.99 µM
V58A,4.41 µM
D398G,2.14 µM
N324V,2.68 µM
W483G,2.47 µM
G517V,877 nM
G514V,980 nM
N42G,2.01 µM

# Block 2
# Target: UDP-N-acetylglucosamine--peptide N-acetylglucosaminyltransferase 110 kDa subunit (OGT, Homo sapiens, UniProt O15294)
# Sequence of UniProt O15294 (whole entry, looked up): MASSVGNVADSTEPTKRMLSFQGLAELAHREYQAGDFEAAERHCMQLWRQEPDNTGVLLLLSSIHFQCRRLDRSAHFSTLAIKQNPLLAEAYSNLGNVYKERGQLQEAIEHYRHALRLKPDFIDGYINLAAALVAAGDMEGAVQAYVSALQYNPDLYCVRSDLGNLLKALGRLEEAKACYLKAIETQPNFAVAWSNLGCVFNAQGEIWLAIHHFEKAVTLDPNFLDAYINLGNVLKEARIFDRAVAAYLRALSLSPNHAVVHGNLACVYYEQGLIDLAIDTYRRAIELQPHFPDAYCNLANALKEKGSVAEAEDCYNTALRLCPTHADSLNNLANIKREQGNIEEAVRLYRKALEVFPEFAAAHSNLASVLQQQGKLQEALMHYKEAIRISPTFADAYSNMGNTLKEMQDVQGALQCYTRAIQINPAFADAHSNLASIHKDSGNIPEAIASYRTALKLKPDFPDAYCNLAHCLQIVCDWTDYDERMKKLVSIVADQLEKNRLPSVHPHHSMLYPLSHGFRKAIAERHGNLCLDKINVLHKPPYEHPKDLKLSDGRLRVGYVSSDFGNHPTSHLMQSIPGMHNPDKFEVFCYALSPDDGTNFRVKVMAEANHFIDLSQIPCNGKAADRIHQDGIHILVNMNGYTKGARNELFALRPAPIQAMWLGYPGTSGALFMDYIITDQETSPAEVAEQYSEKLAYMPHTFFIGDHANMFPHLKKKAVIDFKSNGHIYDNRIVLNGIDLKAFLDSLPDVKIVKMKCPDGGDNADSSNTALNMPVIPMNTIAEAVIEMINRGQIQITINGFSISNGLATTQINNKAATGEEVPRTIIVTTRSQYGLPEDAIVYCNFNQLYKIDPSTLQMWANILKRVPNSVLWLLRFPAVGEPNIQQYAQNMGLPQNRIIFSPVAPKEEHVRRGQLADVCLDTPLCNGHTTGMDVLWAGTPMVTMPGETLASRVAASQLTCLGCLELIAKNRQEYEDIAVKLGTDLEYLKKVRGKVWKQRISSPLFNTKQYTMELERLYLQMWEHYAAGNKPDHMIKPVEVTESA
# Observed: binding
# Technique: phage display NGS
# Form: peptide
# Setting: panning round 2
# Relative to: input library
Molecule,minimum log2 enrichment ratio
HADHKSPLFNHNTQH,2.18
TIAQQSRMMNHHSKH,2.34
QPQHQSNQHVHHRYF,1.69
HAQHTVQGNHQHVAH,4.38
HWRPHHHMGEEINV,2.37
YEYYQVGVHHHPLHL,2.48
HVHGASPHSRNHSA,2.62
GMTHQYHLHHDSGFQ,2.63

# Further values, each from its own experiment
Structure (SMILES),target,assay,test system,conditions,endpoint,result
CC(=O)C1=C(C)N(c2cccc(C(F)(F)F)c2)C(=O)N[C@H]1c1ccc(C#N)nc1,"Sodium-dependent dopamine transporter (SLC6A3, Homo sapiens, UniProt Q01959)",cell-free assay,,10 µM,inhibition,1.88%
O=C1CCC(N2Cc3c(ccc4c3OCC43CCN(Cc4ccccc4)CC3)C2=O)C(=O)N1 (stereo not drawn),"DNA-binding protein Ikaros (Homo sapiens, UniProt Q13422)","degrader, HiBiT",HEK293,"0.0001694 µM, 6 h",remaining protein,101%
